# Measurements gathered from unrelated publications.
# Each numbered part is a random draw from the data of one study; scales do not carry over between parts. Positions count from the first letter of the parent shown.

# Block 1
# Target: CEP164, C-terminal peptide (human)
# Technique: DHFR complementation, deep sequencing
# Medium: yeast
# Setting: single substitutions, model-inferred values
# Baseline: wild type
# Direction: higher = weaker binding
# Starting sequence: PDZK1, PDZ domain 2 (human); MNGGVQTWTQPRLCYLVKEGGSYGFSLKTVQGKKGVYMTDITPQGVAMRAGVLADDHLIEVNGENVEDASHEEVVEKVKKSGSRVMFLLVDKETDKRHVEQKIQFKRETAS; partner HNRVKVYRF
Variant,binding free energy change [kcal/mol]
E72M,0.488
N2F,0.00395
K34L,0.405
S81L,0.711
G24P,1.3
L89Q,1.1
G35D,0.639
K77Q,0.166
V78E,2.11
N2Q,-0.0801
G20K,0.0205
C14R,0.655
R49Q,0.15
A69M,-0.4
T39S,0.201
E67M,0.0585
K102N,-0.0816
L58R,0.632
H98D,0.0169
Q104E,-0.106
P11G,-0.188
H57R,-0.618

# Block 2
# Target: Interferon regulatory factor 7, full length, phosphomimetic (IRF7, Homo sapiens, UniProt Q92985, residues 1-503, S471D/S472D/S475D/S476D/S477D/S483D/S484D/S487D)
# Chain of UniProt Q92985 (whole entry, unmodified, looked up): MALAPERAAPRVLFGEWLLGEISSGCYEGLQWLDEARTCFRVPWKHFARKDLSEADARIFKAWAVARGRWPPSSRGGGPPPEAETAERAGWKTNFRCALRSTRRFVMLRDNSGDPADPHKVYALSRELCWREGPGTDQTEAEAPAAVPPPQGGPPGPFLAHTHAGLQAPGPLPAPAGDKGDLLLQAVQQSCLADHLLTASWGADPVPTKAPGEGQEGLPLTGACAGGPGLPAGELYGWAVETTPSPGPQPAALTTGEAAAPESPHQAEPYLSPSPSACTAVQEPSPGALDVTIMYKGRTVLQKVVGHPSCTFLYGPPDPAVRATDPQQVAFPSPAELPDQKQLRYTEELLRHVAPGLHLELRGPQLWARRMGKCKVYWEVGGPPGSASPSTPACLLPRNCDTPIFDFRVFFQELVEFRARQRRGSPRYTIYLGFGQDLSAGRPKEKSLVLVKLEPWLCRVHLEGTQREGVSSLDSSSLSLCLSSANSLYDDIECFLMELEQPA
# Technique: protein-binding microarray
# Molecule type: double-stranded DNA, one strand shown
# Medium: in vitro
# Tested at: 2200 nM top
# Setting: 60-bp whole probe
# With: salmon DNA 0.4 mg/ml
# Baseline: random background probes
# Direction: higher = stronger binding
# Shared flanks, not repeated: GCCTAGCAC … GTCTTGATTCGCTTGACGCTGCTG
Oligonucleotide,fitted relative affinity
TTAGATTTCGGGTTTCGAATAGTGCTA,4.61 z-score
GACGGACTGGGGACTGGCGACGTGCTA,-0.82 z-score
TTAGGTCTCGGTATGGGTTAGTGCTAG,0.593 z-score
ACAGGACAGTCCCATCTACCGTGCTAG,0.31 z-score
TCATGTTTCTCAACCATACTGTGCTAG,2.17 z-score
GACGGATTGGGTTTCGGGACGTGCTAG,1.65 z-score
TCTTTTTTTTCTTTAAAAGTGTGCTAG,1.58 z-score
GCTGTTCTCAGACTGGGTGCGTGCTAG,1.04 z-score
TTAGAACTGAGTATCGATCAGTGCTAG,-0.619 z-score
GACGATCTCAGCTTCGAGACGTGCTAG,0.17 z-score
TTCGGTATCGGGTTTCGGTTAGTGCTA,4.51 z-score
TTAGGTCTCGGTCTCGGTGAGTGCTAG,0.324 z-score
AAGATTCTAGCCTATAGAAGCGTGCTA,-0.44 z-score
CTAGATATCAGTTTCGATTAGTGCTAG,5.9 z-score
CTAGAGATTTTTCTCAACCGGTGCTAG,-0.394 z-score
GACGGACTGGACTTTCGGGACGTGCTA,1.99 z-score
TAGGCTCTGTGCTTTCCTGATGTGCTA,0.724 z-score
GACGGACTGGGACGGGGGACGTGCTAG,0.122 z-score
TTTCCCATGAGTCTCAAAATGTGCTAG,2.28 z-score
TTAGGTTGCGACACTGGGTTAGTGCTA,-0.262 z-score
GACGGACTGCTTTTCCTAACGTGCTAG,0.769 z-score
GACGGTTCCGGTTTCAGGACGTGCTAG,3.63 z-score
GACGATATCGGGTATCGAGACGTGCTA,0.0936 z-score
TTTGGTATCGGGTATCGGTTAGTGCTA,1.35 z-score

# Block 3
# Target: RNA binding protein fox-1 homolog 2, RRM domain, GST-SBP tag (RBFOX2, Homo sapiens, UniProt O43251-10, residues 100-194)
# Technique: RNA Bind-n-Seq
# Molecule type: RNA
# Medium: in vitro
# Tested at: 365 nM
# Setting: natural RNA segment, single round, ends assumed
# Baseline: no-protein control
# Direction: higher = stronger binding
# Shared flanks, not repeated: GGGAGUUCUACAGUCCGACGAUC … UGGAAUUCUCGGGUGCCAA
# Target sequence (chain): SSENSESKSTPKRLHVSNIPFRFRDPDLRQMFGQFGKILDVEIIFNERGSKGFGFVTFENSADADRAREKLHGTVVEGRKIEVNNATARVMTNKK
Oligonucleotide,RBNS enrichment (R)
CUUAAGGAACUGCCCUGCCACUCACCCAGGUGACAGCCUGUAGCAGUGCAUGGAGACCCCUUUAGGCUCAGGGCUGCUCGAGCUCUGACUCUAACCCUGCUCCUUCCUAG,0.348
GCUAAAUUUCGUAGCACUGUUUACAGUUUUCCUCCAUGUUAUUUAUGAAUUUUAUAUUCCGUGAAUGUAUAUUGUCUUGUAAUGUUGCAUAAUGUUCACUUUUUAUAGUG,2.02
GAAAAAACUUAAAAAUUAAUAUGGUGUAUUUUUCCAAAUGAAAAAUCUCAAUUGAAAGCUUUUAAAAUGUAGAAACUUAAACACACCUUCCUGUGGAGGCUGAGAUGAAA,0.628
ACCUGCACAUCACUGCACAGACCUGAUUUGUGUCCCAGUGGACUUGUCCAAUGGAUGAAGUUGAUUCAUAUUGCAUCAUAGUGUGUCAUAUUUAAGCUCACAUUAGAGUU,0.639
AUGUGCGCUGGGAGUACUGCGUGCGCGCCAAGCGCGGCCAGACCGACACCUCGCUGCCAGGUUGUUUCAGCAAGGACCAGGUGUACCUGGACGGCAUCGUGCGCAUUCUG,0.483
UAAAAUAACAGCAAUAAACCUAACCUUUUAACAGGGUCUAACAUGAGAGUUGGAGUCAAAGCCAUUGUUAUCUUUUGGUGACACCCUUAAAUUUUAAGUCUUCCAGUCUU,0.69
UAGUAUAAUGAUGGUCUUGGAUUGUCUGACCUCAGUAGCUAUUAAAUAACAUCAAGUAACAUCUGUAUCAGGCCCUACAUAGAACAUACAGUUGAGUGGGAGUAAACAAA,0.411
CGUUUGAUUAUUUUGUCUGUCUCCUAUAUAGAUCUGUUUUGUCUAGUGCUAUGAAUGUAACUUAAAACUAUAAACUUGAAGUUUUUAUUCUAUAUGCCCCUUAAUAGACU,0.559
UUAUAUUAAAAAGAUCUGUGGGAAAAUAAAGCCAGCCCUUGUUUUGGAUGUGUUGUUUCUGAAACCCAAGUUUAUGAAUUUUUUGUUUUUCUUUUUUGAGACAGGGUUUC,2.7
UAACUGCAAAAAGUUAGUCUUAUGUAUAGACAUUAUUUUCGUCGUAUGUUUCUAUAUUUUGAAACAGGUAUGUAACUUCUUCAUUUGAAGGAUAAGCUGGUUUGUGUUAA,0.922
UAAUCUAGUUGGCAAAGGUGUGCGCUAAAACACGGAACCGAACAUGCAUUGAUUUGGAUAACUUUUGAGGGUUUUUGUCAAAUAGCAUGUGAAGAGUUACAUUUUUCUUA,1.28
UCCAGCUACCUACAUGUCUUUUCUUGUCAUCCUUAUAGAUCUCUUUGGCUUUCAGAAAGAUACAGUGAUAAUGUGUGUAUGAAUCAGUCACAAUGAAUUUUACUUGAAUA,5.02

# Block 4
# Target: CCND2, cyclin fold, Cln2 fusion (human)
# Technique: yeast growth competition, sequencing
# Medium: yeast
# Setting: weak parent motif
# Baseline: not given
# Direction: higher = stronger binding
# Starting sequence: WEE1 docking peptide (human); HKTFRKLRLFDTP; partner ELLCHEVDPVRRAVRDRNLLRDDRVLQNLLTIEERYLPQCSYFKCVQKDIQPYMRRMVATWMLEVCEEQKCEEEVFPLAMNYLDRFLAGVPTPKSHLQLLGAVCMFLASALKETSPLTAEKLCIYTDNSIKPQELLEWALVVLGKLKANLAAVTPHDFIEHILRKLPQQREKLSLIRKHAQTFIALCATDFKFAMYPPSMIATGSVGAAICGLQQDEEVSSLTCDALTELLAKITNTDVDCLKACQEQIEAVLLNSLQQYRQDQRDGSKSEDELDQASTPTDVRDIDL
Variant,normalised enrichment score
HKTFRKLRLFTTP [D11T],-0.025
HKTFRKLVLFDTP [R8V],0.113
FKTFRKLRLFDTP [H1F],-0.719
HKTFRKLRLFDTT [P13T],0.446
HKTTRKLRLFDTP [F4T],0.307
HKTFRKLRLFDIP [T12I],0.403
QKTFRKLRLFDTP [H1Q],0.239
HKTFRKKRLFDTP [L7K],0.336
HKTFRKLREFDTP [L9E],0.0696
NKTFRKLRLFDTP [H1N],0.25
HKTFRKLRLFDTD [P13D],0.263
GKTFRKLRLFDTP [H1G],0.303
HKTFRKLRLFDTN [P13N],0.7
HKTFIKLRLFDTP [R5I],0.0615
HKLFRKLRLFDTP [T3L],-0.166
HKMFRKLRLFDTP [T3M],-0.324
HKFFRKLRLFDTP [T3F],-0.24
HKTFRKLRAFDTP [L9A],0.688
HKTFRVLRLFDTP [K6V],-0.186
HKTFRKLRLFDTY [P13Y],0.0279
HKTFRKLRLFDSP [T12S],0.253
EKTFRKLRLFDTP [H1E],-0.0275
HKTFRKLWLFDTP [R8W],0.697
HKTFRKRRLFDTP [L7R],-0.0692
HKTFRKCRLFDTP [L7C],0.578

# Block 5
# Target: ABI1, truncated, D143A, DHFR fusion (Arabidopsis thaliana)
# Technique: DHFR PCA, deep sequencing
# Medium: yeast
# Setting: methotrexate growth selection, single substitutions
# With: (+)-ABA 0.11 µM
# Baseline: wild-type fitted maximum
# Direction: higher = stronger binding
# Starting sequence: PYL1, truncated, DHFR fusion (Arabidopsis thaliana); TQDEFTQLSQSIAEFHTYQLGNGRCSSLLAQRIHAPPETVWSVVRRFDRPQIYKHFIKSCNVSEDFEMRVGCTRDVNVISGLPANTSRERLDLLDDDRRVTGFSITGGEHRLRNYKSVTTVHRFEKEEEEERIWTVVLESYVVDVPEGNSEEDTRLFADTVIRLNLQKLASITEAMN
Variant,relative binding score [%]
G148V,-0.471
Q7F,30.9
Q19M,10.2
L82Q,17
D97P,-6.88
R88I,39.8
I57H,-5.46
L169V,1.26
R111T,1.14
K54R,16.4
P146N,6.98
N149S,63.2
L20E,36.4
G148H,-5.41
L28V,52.9
I133Q,40.7
R24D,1.8
I105M,7.15
N165F,1.39
A35I,-0.098

# Excerpt of the above (block 3):
Oligonucleotide,RBNS enrichment (R)
CUUAAGGAACUGCCCUGCCACUCACCCAGGUGACAGCCUGUAGCAGUGCAUGGAGACCCCUUUAGGCUCAGGGCUGCUCGAGCUCUGACUCUAACCCUGCUCCUUCCUAG,0.348
GCUAAAUUUCGUAGCACUGUUUACAGUUUUCCUCCAUGUUAUUUAUGAAUUUUAUAUUCCGUGAAUGUAUAUUGUCUUGUAAUGUUGCAUAAUGUUCACUUUUUAUAGUG,2.02
GAAAAAACUUAAAAAUUAAUAUGGUGUAUUUUUCCAAAUGAAAAAUCUCAAUUGAAAGCUUUUAAAAUGUAGAAACUUAAACACACCUUCCUGUGGAGGCUGAGAUGAAA,0.628
ACCUGCACAUCACUGCACAGACCUGAUUUGUGUCCCAGUGGACUUGUCCAAUGGAUGAAGUUGAUUCAUAUUGCAUCAUAGUGUGUCAUAUUUAAGCUCACAUUAGAGUU,0.639
AUGUGCGCUGGGAGUACUGCGUGCGCGCCAAGCGCGGCCAGACCGACACCUCGCUGCCAGGUUGUUUCAGCAAGGACCAGGUGUACCUGGACGGCAUCGUGCGCAUUCUG,0.483
UAAAAUAACAGCAAUAAACCUAACCUUUUAACAGGGUCUAACAUGAGAGUUGGAGUCAAAGCCAUUGUUAUCUUUUGGUGACACCCUUAAAUUUUAAGUCUUCCAGUCUU,0.69
UAGUAUAAUGAUGGUCUUGGAUUGUCUGACCUCAGUAGCUAUUAAAUAACAUCAAGUAACAUCUGUAUCAGGCCCUACAUAGAACAUACAGUUGAGUGGGAGUAAACAAA,0.411
CGUUUGAUUAUUUUGUCUGUCUCCUAUAUAGAUCUGUUUUGUCUAGUGCUAUGAAUGUAACUUAAAACUAUAAACUUGAAGUUUUUAUUCUAUAUGCCCCUUAAUAGACU,0.559
UUAUAUUAAAAAGAUCUGUGGGAAAAUAAAGCCAGCCCUUGUUUUGGAUGUGUUGUUUCUGAAACCCAAGUUUAUGAAUUUUUUGUUUUUCUUUUUUGAGACAGGGUUUC,2.7
UAACUGCAAAAAGUUAGUCUUAUGUAUAGACAUUAUUUUCGUCGUAUGUUUCUAUAUUUUGAAACAGGUAUGUAACUUCUUCAUUUGAAGGAUAAGCUGGUUUGUGUUAA,0.922
UAAUCUAGUUGGCAAAGGUGUGCGCUAAAACACGGAACCGAACAUGCAUUGAUUUGGAUAACUUUUGAGGGUUUUUGUCAAAUAGCAUGUGAAGAGUUACAUUUUUCUUA,1.28
UCCAGCUACCUACAUGUCUUUUCUUGUCAUCCUUAUAGAUCUCUUUGGCUUUCAGAAAGAUACAGUGAUAAUGUGUGUAUGAAUCAGUCACAAUGAAUUUUACUUGAAUA,5.02
